Experimental data of several laboratories.
Compare with care: the assays were run in different laboratories. ± marks the error that the study gave.
Methyl-accepting chemotaxis protein CtaA sensing domain: Methyl-accepting chemotaxis protein CtaA, sensing domain (Pseudomonas fluorescens, UniProt Q3K7T6)
STARD3 START domain: StAR-related lipid transfer protein 3, START domain (STARD3, Homo sapiens, UniProt Q14849)
Chain of UniProt Q14849 (whole entry, looked up): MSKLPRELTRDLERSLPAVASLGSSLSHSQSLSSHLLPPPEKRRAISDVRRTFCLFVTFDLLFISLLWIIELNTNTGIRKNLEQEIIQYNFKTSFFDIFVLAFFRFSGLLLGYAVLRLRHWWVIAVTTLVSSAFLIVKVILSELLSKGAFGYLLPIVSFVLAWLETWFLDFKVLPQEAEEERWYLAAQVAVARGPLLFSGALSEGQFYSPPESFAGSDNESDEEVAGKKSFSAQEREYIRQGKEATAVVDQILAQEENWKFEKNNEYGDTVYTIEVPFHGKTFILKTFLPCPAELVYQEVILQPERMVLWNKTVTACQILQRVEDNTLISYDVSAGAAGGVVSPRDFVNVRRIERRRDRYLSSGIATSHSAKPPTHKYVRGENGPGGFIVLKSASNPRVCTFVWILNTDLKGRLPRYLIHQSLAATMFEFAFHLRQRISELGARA
Chain of UniProt Q07741 (whole entry, looked up): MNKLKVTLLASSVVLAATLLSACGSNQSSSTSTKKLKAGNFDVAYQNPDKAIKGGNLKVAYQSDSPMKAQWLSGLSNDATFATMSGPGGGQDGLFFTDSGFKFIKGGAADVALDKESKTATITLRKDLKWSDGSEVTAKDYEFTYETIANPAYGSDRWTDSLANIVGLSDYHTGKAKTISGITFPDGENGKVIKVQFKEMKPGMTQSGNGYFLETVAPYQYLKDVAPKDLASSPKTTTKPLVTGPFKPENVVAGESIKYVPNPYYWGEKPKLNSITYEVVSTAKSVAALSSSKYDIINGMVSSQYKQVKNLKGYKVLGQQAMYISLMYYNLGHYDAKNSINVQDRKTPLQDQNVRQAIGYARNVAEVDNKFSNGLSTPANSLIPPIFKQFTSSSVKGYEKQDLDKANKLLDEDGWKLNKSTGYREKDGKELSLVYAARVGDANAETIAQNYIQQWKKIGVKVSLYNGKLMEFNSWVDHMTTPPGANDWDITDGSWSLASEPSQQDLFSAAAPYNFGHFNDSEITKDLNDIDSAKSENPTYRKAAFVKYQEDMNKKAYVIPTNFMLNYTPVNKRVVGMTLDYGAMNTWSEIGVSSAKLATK
Chain of UniProt P02730 (whole entry, looked up): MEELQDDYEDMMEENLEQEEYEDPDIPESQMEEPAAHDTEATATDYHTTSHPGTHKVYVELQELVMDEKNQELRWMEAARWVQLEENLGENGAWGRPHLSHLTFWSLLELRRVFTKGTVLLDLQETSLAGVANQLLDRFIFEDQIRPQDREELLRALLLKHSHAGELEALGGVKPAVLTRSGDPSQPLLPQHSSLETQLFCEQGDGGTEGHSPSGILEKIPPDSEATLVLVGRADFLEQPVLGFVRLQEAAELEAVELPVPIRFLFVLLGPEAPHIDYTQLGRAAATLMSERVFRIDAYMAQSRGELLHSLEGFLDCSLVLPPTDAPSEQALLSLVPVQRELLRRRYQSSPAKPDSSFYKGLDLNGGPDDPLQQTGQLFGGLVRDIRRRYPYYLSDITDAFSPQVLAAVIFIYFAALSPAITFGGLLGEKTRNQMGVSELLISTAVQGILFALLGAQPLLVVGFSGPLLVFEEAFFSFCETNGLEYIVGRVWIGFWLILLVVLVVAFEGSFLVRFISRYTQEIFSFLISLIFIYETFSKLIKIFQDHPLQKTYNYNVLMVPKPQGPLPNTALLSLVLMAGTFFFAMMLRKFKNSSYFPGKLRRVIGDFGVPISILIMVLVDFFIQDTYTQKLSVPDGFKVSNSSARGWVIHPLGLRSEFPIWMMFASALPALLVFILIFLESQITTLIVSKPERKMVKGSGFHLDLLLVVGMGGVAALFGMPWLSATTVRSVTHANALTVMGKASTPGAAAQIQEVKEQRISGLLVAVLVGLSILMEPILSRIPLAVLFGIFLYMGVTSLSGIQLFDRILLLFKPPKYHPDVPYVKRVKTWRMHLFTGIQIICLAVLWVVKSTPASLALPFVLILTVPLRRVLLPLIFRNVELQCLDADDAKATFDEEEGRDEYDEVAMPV
Chain of UniProt Q9UNA4 (whole entry, looked up): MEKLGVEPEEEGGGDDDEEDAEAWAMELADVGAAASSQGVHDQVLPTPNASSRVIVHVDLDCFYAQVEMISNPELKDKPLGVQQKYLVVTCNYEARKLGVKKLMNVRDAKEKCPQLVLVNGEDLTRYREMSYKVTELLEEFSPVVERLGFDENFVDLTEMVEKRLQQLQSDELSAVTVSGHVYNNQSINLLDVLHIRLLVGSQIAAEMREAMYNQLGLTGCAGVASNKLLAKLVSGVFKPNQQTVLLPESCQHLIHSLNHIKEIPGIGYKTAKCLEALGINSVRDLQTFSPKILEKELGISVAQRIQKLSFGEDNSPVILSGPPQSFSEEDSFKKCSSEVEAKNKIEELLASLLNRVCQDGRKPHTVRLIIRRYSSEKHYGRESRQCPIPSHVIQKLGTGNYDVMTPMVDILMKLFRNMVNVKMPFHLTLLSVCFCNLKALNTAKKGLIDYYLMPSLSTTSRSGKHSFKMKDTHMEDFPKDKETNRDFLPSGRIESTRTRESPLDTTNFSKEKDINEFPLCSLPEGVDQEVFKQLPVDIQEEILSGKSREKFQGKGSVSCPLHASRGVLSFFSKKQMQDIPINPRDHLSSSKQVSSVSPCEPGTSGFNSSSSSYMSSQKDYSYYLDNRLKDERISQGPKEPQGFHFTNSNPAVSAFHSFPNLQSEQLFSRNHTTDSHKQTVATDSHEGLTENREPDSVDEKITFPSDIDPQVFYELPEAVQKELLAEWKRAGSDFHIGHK
Chain of UniProt P17931 (whole entry, looked up): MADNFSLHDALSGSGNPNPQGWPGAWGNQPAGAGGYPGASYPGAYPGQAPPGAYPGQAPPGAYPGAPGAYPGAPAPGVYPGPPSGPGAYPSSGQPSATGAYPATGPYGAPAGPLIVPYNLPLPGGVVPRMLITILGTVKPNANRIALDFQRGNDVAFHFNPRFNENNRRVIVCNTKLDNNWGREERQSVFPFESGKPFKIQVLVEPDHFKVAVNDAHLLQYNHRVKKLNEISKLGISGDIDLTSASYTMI
Chain of UniProt P62873 (whole entry, looked up): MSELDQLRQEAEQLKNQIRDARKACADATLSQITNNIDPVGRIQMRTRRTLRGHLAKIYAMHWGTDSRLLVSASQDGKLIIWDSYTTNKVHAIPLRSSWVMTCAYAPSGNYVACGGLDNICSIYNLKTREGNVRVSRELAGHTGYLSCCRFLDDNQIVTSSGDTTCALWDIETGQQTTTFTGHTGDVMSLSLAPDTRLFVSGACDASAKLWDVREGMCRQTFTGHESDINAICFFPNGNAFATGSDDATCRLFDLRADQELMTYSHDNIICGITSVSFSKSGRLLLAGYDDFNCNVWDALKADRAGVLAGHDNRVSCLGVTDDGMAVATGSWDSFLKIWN
Chain of UniProt Q9Y3Q0 (whole entry, looked up): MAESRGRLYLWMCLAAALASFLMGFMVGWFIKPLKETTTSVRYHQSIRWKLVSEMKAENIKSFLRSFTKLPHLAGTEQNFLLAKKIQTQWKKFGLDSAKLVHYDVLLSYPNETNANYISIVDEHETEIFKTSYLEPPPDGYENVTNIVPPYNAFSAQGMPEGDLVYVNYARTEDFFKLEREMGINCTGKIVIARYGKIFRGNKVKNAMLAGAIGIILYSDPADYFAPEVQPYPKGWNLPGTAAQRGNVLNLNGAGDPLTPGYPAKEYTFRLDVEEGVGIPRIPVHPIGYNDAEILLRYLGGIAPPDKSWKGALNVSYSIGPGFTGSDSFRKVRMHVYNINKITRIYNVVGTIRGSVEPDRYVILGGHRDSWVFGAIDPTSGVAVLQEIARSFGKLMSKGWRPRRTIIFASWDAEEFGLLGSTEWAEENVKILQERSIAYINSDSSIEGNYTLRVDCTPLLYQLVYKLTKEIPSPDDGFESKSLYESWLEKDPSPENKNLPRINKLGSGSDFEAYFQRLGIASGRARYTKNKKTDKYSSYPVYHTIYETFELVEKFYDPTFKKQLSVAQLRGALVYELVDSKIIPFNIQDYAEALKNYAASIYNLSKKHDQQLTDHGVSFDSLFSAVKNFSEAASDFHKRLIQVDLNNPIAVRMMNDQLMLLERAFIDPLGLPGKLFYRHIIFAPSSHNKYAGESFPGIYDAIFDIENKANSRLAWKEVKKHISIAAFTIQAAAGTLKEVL
Chain of UniProt O94788 (whole entry, looked up): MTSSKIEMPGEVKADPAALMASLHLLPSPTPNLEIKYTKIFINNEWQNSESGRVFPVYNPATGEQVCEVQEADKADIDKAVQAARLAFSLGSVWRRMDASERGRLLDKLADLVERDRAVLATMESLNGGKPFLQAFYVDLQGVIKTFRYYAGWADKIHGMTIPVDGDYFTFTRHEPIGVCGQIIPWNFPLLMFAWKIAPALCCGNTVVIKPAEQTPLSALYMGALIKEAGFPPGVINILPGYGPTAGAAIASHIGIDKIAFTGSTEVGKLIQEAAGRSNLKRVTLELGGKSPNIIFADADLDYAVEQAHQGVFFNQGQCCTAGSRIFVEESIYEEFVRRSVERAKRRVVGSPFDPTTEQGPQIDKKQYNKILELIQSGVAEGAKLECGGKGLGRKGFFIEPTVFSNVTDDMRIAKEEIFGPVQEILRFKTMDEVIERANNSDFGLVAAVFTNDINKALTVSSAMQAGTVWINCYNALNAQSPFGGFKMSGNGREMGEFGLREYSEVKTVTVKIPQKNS
Chain of UniProt P53215 (whole entry, unmodified, looked up): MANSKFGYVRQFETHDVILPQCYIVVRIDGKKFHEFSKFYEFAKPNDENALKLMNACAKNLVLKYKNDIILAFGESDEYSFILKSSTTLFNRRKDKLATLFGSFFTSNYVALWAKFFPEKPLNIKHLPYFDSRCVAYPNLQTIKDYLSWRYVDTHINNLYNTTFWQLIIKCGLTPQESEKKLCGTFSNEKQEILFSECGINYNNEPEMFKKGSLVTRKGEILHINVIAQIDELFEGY
Chain of UniProt P02696 (whole entry, looked up): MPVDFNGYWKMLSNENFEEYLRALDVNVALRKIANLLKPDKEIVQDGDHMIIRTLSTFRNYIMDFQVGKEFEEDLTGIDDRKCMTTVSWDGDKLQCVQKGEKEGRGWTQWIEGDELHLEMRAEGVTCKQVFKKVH

| Structure (SMILES) | target | test | test system | setting | Kd |
| --- | --- | --- | --- | --- | --- |
| CCCCCCCCCCCCCCCC(=O)SCCNC(=O)CCNC(=O)[C@H](O)C(C)(C)COP(=O)(O)OP(=O)(O)OC[C@H]1O[C@@H](n2cnc3c(N)ncnc32)[C@H](O)[C@@H]1OP(=O)(O)O | Carnitine O-palmitoyltransferase 1, liver isoform, C-terminal peptide (Rattus norvegicus, UniProt P32198) | intrinsic fluorescence quenching | – | CPT1 peptide 0.1 µM | 0.005 ± 0.001 µM |
| N[C@@H](CO)C(=O)O | Methyl-accepting chemotaxis protein CtaA sensing domain | binding, thermal shift, zero heat capacity | – | 25 °C | 13 ± 3 µM |
| CS(=O)(=O)c1ccc(-c2nn(-c3ccc(C#N)cc3)cc2C(=O)Nc2cccc(F)c2)cc1 | ALDH1A2 (Homo sapiens, UniProt O94788) | binding, isothermal titration calorimetry | – | 30 °C, together with: NAD 1 mM | 1.1 ± 0.28 µM |
| CC(=O)N[C@@H](CC(C)C)C(=O)N[C@@H](CCCCN)C(=O)N[C@@H](CCCCN)C(=O)N[C@@H](CC(C)C)C(=O)N[C@@H](CC(C)C)C(=O)N[C@@H](CCCCN)C(=O)N[C@@H](CC(C)C)C(=O)N[C@@H](CC(C)C)C(=O)N[C@@H](CCCCN)C(=O)N[C@@H](CCCCN)C(=O)N[C@@H](CC(C)C)C(=O)N[C@@H](Cc1c[nH]c2ccccc12)C(=O)N[C@@H](CCCCN)C(=O)N[C@@H](CC(C)C)C(=O)N[C@@H](C)C(=O)NCC(N)=O | 16S rRNA A-site hairpin (Escherichia coli) | competitive fluorescence anisotropy | – | pH 7.4, 20 °C, together with: rhodamine-Rev peptide | 0.017 ± 0.001 µM |
| O=C(O)c1cc(NC(=O)C2CC2c2ccccc2)ccc1O (stereo not drawn) | GTPase KRas (KRAS, Homo sapiens, UniProt P01116) | microscale thermophoresis | – | first high-affinity site, together with: GNP-bound | 0.05 ± 0.03 µM |
| CC(=O)N[C@H]1C(O)O[C@H](CO)[C@@H](O[C@@H]2O[C@H](CO)[C@H](O)[C@H](O)[C@H]2O)[C@@H]1O (stereo partly drawn) | Galectin-3 (LGALS3, Homo sapiens, UniProt P17931) | – | – | – | 38.6 ± 0.5 µM |
| C#CC[C@H](NC(=O)[C@@H]1C[C@@H](C2CCCCC2)CN1C(=O)CSC1CCN(C(=O)CC[C@H](NC(=O)N[C@@H](CCC(=O)O)C(=O)O)C(=O)O)CC1)C(=O)NCCOCCOCCNC(=S)Nc1ccc2c(c1)C(=O)OC21c2ccc(O)cc2Oc2cc(O)ccc21 | N-acetylated-alpha-linked acidic dipeptidase 2 (Homo sapiens, UniProt Q9Y3Q0) | cell-free assay, FP | – | – | 0.038 µM |
| CC(C)[C@H](NC(=O)CNC(=O)[C@H](CC(N)=O)NC(=O)[C@H](CCCNC(=N)N)NC(=O)[C@H](Cc1ccccc1)NC(=O)[C@@H](N)CO)C(=O)NCC(=O)N[C@@H](CO)C(=O)NCC(=O)N[C@H](C(=O)N[C@@H](CCCCN)C(=O)N[C@@H](CCCCN)C(=O)N[C@H](C(=O)N[C@@H](CO)C(=O)N[C@@H](Cc1ccccc1)C(=O)N[C@@H](CCCNC(=N)N)C(=O)N[C@@H](CCCNC(=N)N)C(=O)N[C@@H](C)C(=O)N[C@@H](CCCCN)C(=O)N[C@@H](CCC(N)=O)C(=O)O)[C@@H](C)O)C(C)C | Oligopeptide-binding protein OppA (oppA, Lactococcus lactis subsp. lactis, UniProt Q07741) | – | – | – | 1800 ± 100 µM |
| NC[C@H]1O[C@H](O[C@H]2[C@H](O)[C@@H](O[C@H]3O[C@H](CO)[C@@H](O)[C@H](N)[C@H]3O)[C@H](N)C[C@@H]2N)[C@H](N)C[C@@H]1O | HIV-1 SL2 RNA stem-loop | binding, ESI-FTMS titration | – | pH 7.5 | 9.7 ± 1.6 µM |
| CC[C@H](C)[C@H](NC(=O)CNC(=O)[C@H](CC(=O)O)NC(=O)[C@@H](NC(=O)[C@H](C)NC(=O)[C@H](CCC(N)=O)NC(=O)[C@@H](NC(=O)[C@H](CCSC)NC(=O)[C@H](CCCNC(=N)N)NC(=O)[C@@H](N)CCC(=O)O)[C@@H](C)CC)[C@@H](C)CC)C(=O)N[C@@H](CC(N)=O)C(=O)N[C@@H](C)C(=O)N[C@@H](CCC(N)=O)C(=O)N[C@@H](CCCCN)C(=O)N[C@@H](CCC(N)=O)C(=O)N[C@@H](Cc1c[nH]c2ccccc12)C(=O)N[C@@H](CC(C)C)C(=O)N[C@@H](CCCCN)C(=O)N[C@@H](CO)C(=O)N[C@@H](CCC(=O)O)C(=O)N[C@@H](CC(=O)O)C(=O)N[C@H](C(=O)N[C@@H](CCC(N)=O)C(=O)N[C@@H](CCCNC(=N)N)C(=O)O)[C@@H](C)CC | Guanine nucleotide-binding protein G(I)/G(S)/G(T) subunit beta-1/gamma-2 (Homo sapiens, UniProt P59768+P62873) | binding, SPR | – | pH 8 | > 10 µM |
| [I-].[K+] | SLC4A1 (Homo sapiens, UniProt P02730) | Cl- exchange, inhibitor, 36Cl flux | erythrocytes, external | pH 11.6, 0 °C, internal Cl- 131 mM | 28600 µM |
| Nc1cc[nH]c(=O)n1 | type 1 ribosome-inactivating protein (Momordica balsamina, UniProt D9J2T9) | surface plasmon resonance | – | 25 °C | 41 µM |
| C[C@H](N)C(=O)O | Methyl-accepting chemotaxis protein CtaA sensing domain | binding, thermal shift, curve fitting | – | – | 2 ± 0.2 µM |
| CC1=C(/C=C/C(C)=C/C=C/C(C)=C/C=C/C=C(C)/C=C/C=C(C)/C=C/C2=C(C)C[C@H](O)CC2(C)C)C(C)(C)C[C@H](O)C1 | STARD3 START domain | binding, SPR | – | 25 °C | 1.63 ± 0.07 µM |
| NC[C@@H]1O[C@H](O[C@H]2[C@@H](O)[C@H](O[C@@H]3[C@@H](O)[C@H](N)C[C@H](N)[C@H]3O[C@H]3O[C@H](CN)[C@@H](O)[C@H](O)[C@H]3N)O[C@@H]2CO)[C@H](N)[C@@H](O)[C@@H]1O | HIV-1 SL2 RNA stem-loop | binding, ESI-FTMS titration | – | pH 7.5 | 3 ± 0.6 µM |
| CC1=C(/C=C/C(C)=C/C=C/C(C)=C/C=C/C=C(C)/C=C/C=C(C)/C=C/C2=C(C)CCCC2(C)C)C(C)(C)CCC1 | STARD3 START domain | binding, SPR | – | 25 °C | 2.3 ± 0.06 µM |
| Nc1nc2c(ncn2[C@@H]2O[C@H](COP(=O)(O)OP(=O)(O)OP(=O)(O)O)[C@@H](O)[C@H]2O)c(=O)[nH]1 | tRNA(His) guanylyltransferase (THG1, Saccharomyces cerevisiae, UniProt P53215, D77A) | nucleotidyl transfer, substrate, single-turnover kinetics | – | pH 7.5, room temperature, together with: ppp-tRNA(His) | 11 ± 4 µM |
| O=C(NN=Cc1ccc(C[n+]2ccccc2)cc1)c1ccc2ccc3ccc(C(=O)NN=Cc4ccc(C[n+]5ccccc5)cc4)nc3c2n1 | telomeric G4 DNA hybrid-1 | binding, native ESI-MS | 100 mM trimethylammonium acetate | 1 mM KCl | 0.31 µM |
| CC(=O)N[C@@H](CC(C)C)C(=O)N[C@@H](CCCCN)C(=O)N[C@@H](CCCCN)C(=O)N[C@@H](CC(C)C)C(=O)N[C@@H](CC(C)C)C(=O)N[C@@H](CCCCN)C(=O)N[C@@H](Cc1c[nH]c2ccccc12)C(=O)N[C@@H](CC(C)C)C(=O)N[C@@H](CCCCN)C(=O)N[C@@H](CCCCN)C(=O)N[C@@H](CC(C)C)C(=O)N[C@@H](CC(C)C)C(=O)N[C@@H](CCCCN)C(=O)N[C@@H](CC(C)C)C(=O)N[C@@H](C)C(=O)NCC(N)=O | 16S rRNA A-site hairpin (Escherichia coli) | competitive fluorescence anisotropy | – | pH 7.4, 20 °C, together with: rhodamine-Rev peptide | 0.017 ± 0.002 µM |
| Cc1ccc(C(=O)Nc2ccccc2C(=O)O)cc1S(=O)(=O)Nc1cccc(Cl)c1 | Replication protein A 70 kDa DNA-binding subunit, N-terminal domain (RPA1, Homo sapiens, UniProt P27694) | fluorescence polarization competition | – | together with: FITC-ATRIP probe | 29 ± 2 µM |
| Cc1ccnn1-c1cccc(NC(=O)CC2OC(=O)c3ccccc32)c1 (stereo not drawn) | Complement C3 (Homo sapiens, UniProt P01024) | binding, SPR | – | – | 450 µM |
| NC[C@@H]1O[C@H](O[C@H]2[C@@H](O)[C@H](O[C@@H]3[C@@H](O)[C@H](N)C[C@H](N)[C@H]3O[C@H]3O[C@H](CO)[C@@H](O)[C@H](O)[C@H]3N)O[C@@H]2CO)[C@H](N)[C@@H](O)[C@@H]1O | HIV-1 SL2 RNA stem-loop | binding, ESI-FTMS titration | – | pH 7.5 | 8.8 ± 1.1 µM |
| Cc1cn([C@H]2C[C@H](O)[C@@H](COP(=O)(O)OP(=O)(O)OP(=O)(O)O)O2)c(=O)[nH]c1=O | DNA polymerase iota (Homo sapiens, UniProt Q9UNA4) | substrate | – | pH 8.0, 37 °C, pre-steady-state, Mg2+, together with: dNTP opposite O2-POB-dT template | 42 ± 18 µM |
| CC(C)C[C@H](N)C(=O)O | Methyl-accepting chemotaxis protein CtaA sensing domain | binding, thermal shift, unfolding equilibrium | – | – | 11 ± 3 µM |
| CC(=O)N[C@@H](CC(C)C)C(=O)N[C@@H](CCCCN)C(=O)N[C@@H](CCCCN)C(=O)N[C@@H](CC(C)C)C(=O)N[C@@H](CC(C)C)C(=O)N[C@@H](CCCCN)C(=O)N[C@@H](CC(C)C)C(=O)N[C@@H](CC(C)C)C(=O)N[C@@H](CCCCN)C(=O)N[C@@H](CCCCN)C(=O)N[C@@H](Cc1c[nH]c2ccccc12)C(=O)N[C@@H](CC(C)C)C(=O)N[C@@H](CCCCN)C(=O)N[C@@H](CC(C)C)C(=O)N[C@@H](C)C(=O)NCC(N)=O | 16S rRNA A-site hairpin (Escherichia coli) | competitive fluorescence anisotropy | – | pH 7.4, 20 °C, together with: rhodamine-Rev peptide | 0.024 ± 0.001 µM |
| N=C(N)NCCC[C@H](NC(=O)c1ccc2c(c1)C(=O)OC21c2ccc(O)cc2Oc2cc(O)ccc21)C(=O)N[C@@H](CO)C(=O)N[C@@H](CCCNC(=N)N)C(=O)N[C@@H](CO)C(=O)N[C@@H](CCCNC(=N)N)C(=O)N[C@@H](CO)C(=O)N[C@@H](CCCNC(=N)N)C(=O)N[C@@H](CO)C(=O)N[C@@H](CCCNC(=N)N)C(=O)N[C@@H](CO)C(=O)N[C@@H](CCCNC(=N)N)C(=O)N[C@@H](CO)C(=O)N[C@@H](CCCNC(=N)N)C(=O)N[C@@H](CO)C(=O)N[C@@H](CCCNC(=N)N)C(=O)N[C@@H](CO)C(=O)O | SRPK1 ΔS | peptide binding, fluorescence | – | together with: fluorescein-labelled Arg-Ser peptide | 0.022 ± 0.006 µM |
| CC1=C(/C=C/C(C)=C/C=C/C(C)=C/CO)C(C)(C)CCC1 | Retinol-binding protein 1 (Rbp1, Rattus norvegicus, UniProt P02696) | binding, fluorescence titration | – | pH 7.4, 25 °C | 0.003 ± 0.002 µM |
